# Experimental data collected from several papers.
# A part holds a random share of what one study measured. Changes are numbered by the printed parent chain.

# Set 1 — target: CCNE1, cyclin fold, Cln2 fusion (human); technique: yeast growth competition, sequencing; medium: yeast; setting: weak parent motif; baseline: not given; direction: higher = stronger binding
# Parent: SLBP docking peptide (human); ARYKRKLLINDFG
Change,normalised enrichment score
R2V,0.575
R2S,0.169
K6F,0.195
Y3I,0.598
R2I,0.916
R2G,1.01
K6M,0.451
L8T,0.087

# Set 2 — technique: RNA Bind-n-Seq; form: RNA; medium: in vitro; tested at: not given; baseline: input RNA pool; direction: higher = stronger binding
# Target: RING finger protein unkempt homolog, zinc fingers 1-6, GST-SBP tag (UNK, Homo sapiens, UniProt Q9C0B0, residues 30-357)
# UniProt Q9C0B0, sequence (30-357, looked up): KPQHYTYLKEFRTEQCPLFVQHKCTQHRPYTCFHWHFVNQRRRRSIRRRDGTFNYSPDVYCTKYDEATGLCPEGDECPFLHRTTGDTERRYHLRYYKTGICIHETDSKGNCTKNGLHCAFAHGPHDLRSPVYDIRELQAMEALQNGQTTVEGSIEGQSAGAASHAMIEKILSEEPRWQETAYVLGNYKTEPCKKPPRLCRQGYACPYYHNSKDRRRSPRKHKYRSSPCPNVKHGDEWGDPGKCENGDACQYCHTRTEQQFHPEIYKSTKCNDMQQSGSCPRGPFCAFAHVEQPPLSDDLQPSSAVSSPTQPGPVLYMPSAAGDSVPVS
# Setting: RNA with constant flanks, human-mouse chimeric sites, ends assumed
# All sequences stand within: GGGAGUUCUACAGUCCGACGAUC … CAACAGAGGAUUGAGCAUCA
Strand,bound/input enrichment [ratio]
CCUCCCCGGGCCACCCAACCCCUCCCGGCUCCCCGCCGAGAUCCAGGUUUCUUCUUAUUUCAUAGCAAAUAAGAAAAAUGUUCUACGCACAUUUUGUCCUCAGUAAACGAGGGCCUCUGG,0.395
UAUUUUUGACAGCCACACAAUCUUGGCAUGUAUUAAGGAAAAAAAAAAUCCCUGUUCAAGUAGUUUUUCCACCUAUCAGCACUGAGUAAAUGCCAUAACUCCGCGGAAAUGGUCUAAAUA,0.235
GCAGGAUCUUCUAAGUACCAGUGGGACAUUAUGAAAUCCCUUGGCCUCUCUGAUGACGACAUAGUGAAGUUUUCUGAAGCAGAGCACUGGCUUGAUUAUUUCCCACCACUGGCCGUUCAG,0.161
CACAGAGGAGACCUCCUGUUCCUCACGAAUUUCCGGGAGGACCCCAUCAGAGCUGGUGAAAUAGUUGUUUUUAAGGUUGAAGGACGAGACAUUCCGAUAGUUCACAGAGUAAUCAAGGUU,3.3
CCUGCUCAGAUCACCAUGAAAGUAAUCCAAGGCCUAUACAGUGGGGUCACCACAGUGGAACUGGACACCCUGGCUGCUGAGACAGCCGCAACCUUGACCACGAAGCACCCUGACUAUGCC,0.147
CCAAUUGUGGAGCAGUACUUGAAGACAAAAAAGAACUCUAAUAAUUUAAUCAUCAAGUACAUUAGCUGCCGGCUGGUGACACUCAUCAUUAUACUGUUAGCGUGUAUCUACCUGGGCUAU,0.239
UCUGGUCACACUCGUGUGUAUGGUGUUUGCUUUGUGGACACUUCACUGGGCAAGUUUUUCAUAGGUCAGUUUUCGGAUGAUCGCCAUUGUUCCAGAUUUAGGACGCUAGUGGCUCACUAU,0.35
CUGGCCUGGCCCUCCCCAGGGGCCUCCUUCUCUGCAUUCACUGCUUCUGCAUCAGAUAUUUUUAGCUGCAACUCCCUACUGGGUGGGGCACCCAUUUCAGGCAGAAGGUUUUGGUACCCU,0.321

# Set 3 — technique: aptamer microarray, sandwich; form: DNA with 2'F-ANA; medium: in vitro; tested at: 200 nM; with: Cy3 exosite-II aptamer, 400 nM; direction: higher = stronger binding; strand: GGTTGGTGTGGTTGG
# Target: Prothrombin, mature alpha-thrombin (F2, Homo sapiens, UniProt P00734)
# Setting: whole 15-mer aptamer, many near background
Modification,mean fluorescence intensity
2'F-ANA at 3 4 7 9 10 14 15,215 a.u.
2'F-ANA at 1 4 5 8 9 10 11 13 14,43.9 a.u.
2'F-ANA at 1 3 4 5 9 12,127 a.u.
2'F-ANA at 1 3 5 8 10 13 14,79.2 a.u.
2'F-ANA at 1 3 4 5 7 8 14 15,45.1 a.u.
2'F-ANA at 2 3 4 6 7 8 9 15,549 a.u.
2'F-ANA at 2 5 7 9 10 11 12 13,50.9 a.u.
2'F-ANA at 1 2 3 5 6 9 10 11 14,44.5 a.u.
2'F-ANA at 5 6 7 8 9 12 13 15,92.5 a.u.
2'F-ANA at 2 3 6 7 8 9 10 11 12 13,320 a.u.

# Further values, each from its own experiment
Substance,target,test,test system,conditions,how to read,quantity,result
"PhoQ, residues 284 288 289 292 302 303 ASVMEA","PhoP, residues 12 14 15 18 19 TQAIL (Escherichia coli, UniProt P23836)","Sort-seq, measured: YFP reporter",E. coli,"PhoQ-PhoP variant library, with: 10 µM Mg2+","baseline: high Mg2+ state, higher = stronger signaling",fold induction,3.32

# A few entries again (set 2):
Strand,bound/input enrichment [ratio]
CACAGAGGAGACCUCCUGUUCCUCACGAAUUUCCGGGAGGACCCCAUCAGAGCUGGUGAAAUAGUUGUUUUUAAGGUUGAAGGACGAGACAUUCCGAUAGUUCACAGAGUAAUCAAGGUU,3.3
CCUGCUCAGAUCACCAUGAAAGUAAUCCAAGGCCUAUACAGUGGGGUCACCACAGUGGAACUGGACACCCUGGCUGCUGAGACAGCCGCAACCUUGACCACGAAGCACCCUGACUAUGCC,0.147
